Measurements from different studies.
Protocols differ between the studies behind these lines.
Cell line: CAKI-1

O=c1ccn(Cc2cn(-c3cc4ccccc4oc3=O)nn2)c(=O)[nH]1 — growth percentage (NCI60 single-dose screen; 10 µM): 102%
O=C(Nc1nnc2n3c(=S)[nH][nH]c3nc(-c3ccc(Cl)cc3)c1-2)c1ccccc1 — cell growth (SRB; 10 µM, NCI60 single-dose screen; relative to: untreated): 74.1%
CCCCN1CCN(c2ccc3nc(-c4ccc5nc(-c6cc(OC)ccc6OC)[nH]c5c4)[nH]c3c2)CC1 — growth percent (SRB; 10 µM, 48 h): 106%
Cc1cc(-c2ccccc2)n(-c2nc(-c3ccc(Cl)cc3)c3c(NC(=O)c4ccccc4)nnc-3[nH]2)n1 — cell growth (SRB; 10 µM, NCI60 single-dose screen; relative to: untreated): 97.7%
CCCCN1CCN(c2ccc3[nH]c(-c4ccc5[nH]c(-c6ccc(OCC)cc6)nc5c4)nc3c2)CC1 — growth percent (SRB; 10 µM, 48 h): 51.2%
Cc1cc(C)n(-c2nc(-c3ccc(Cl)cc3)c3c(NC(=O)c4ccccc4)nnc-3[nH]2)n1 — cell growth (SRB; 10 µM, NCI60 single-dose screen; relative to: untreated): 73.9%
S=C([S][Au-][P+](CCCCCC[P+]([Au-][S]C(=S)n1cccn1)(c1ccccc1)c1ccccc1)(c1ccccc1)c1ccccc1)n1cccn1 — log10 TGI (cell growth, NCI-60 screen; renal cancer): > -4
Cn1cncc1C1=CN(c2ncnc3[nH]cnc23)CCS1 — GI50 (renal cancer): 7.4 µM
O=C1NC(c2ccccc2)(c2ccccc2)C(=O)N1Cc1cn(-c2c3ccccc3nc3ccccc23)nn1 — growth percentage (NCI60 single-dose screen; 10 µM): 73.5%
CCCCN1CCN(c2ccc3[nH]c(-c4ccc5[nH]c(-c6ccc(OCC)c(OCC)c6)nc5c4)nc3c2)CC1 — growth percent (SRB; 10 µM, 48 h): 27.7%
O=C1NC(=NCc2cccs2)S/C1=C\c1ccc2ncccc2c1 — IC50 (MTS; NCI60 panel): > 10 µM
CCn1cc(-c2cc(Cn3ccnc3)cc3c2CCN([C@H](c2cc(OC)ccn2)C2CC2)C3=O)c(C(F)(F)F)n1 — EC50 (cell growth, inhibitor; 120 h): > 30 µM
CCN(CC)c1ccc(C=NNC(=O)CSc2nc3ccccc3c(=O)n2Cc2ccc(S(N)(=O)=O)cc2)c(O)c1 — TGI (NCI five-dose screen): > 100 µM
CCCN1CCN(c2ccc3[nH]c(-c4ccc5[nH]c(-c6ccc(C(F)(F)F)cc6)nc5c4)nc3c2)CC1 — growth percent (SRB; 10 µM, 48 h): 59%
CCn1cc(-c2cc(Cn3ccoc3=N)cc3c2CCN([C@@H](C)c2cc(OC)ccn2)C3=O)c(C(F)(F)F)n1 — EC50 (cell growth, inhibitor; 120 h): 0.00762 µM
CCOC(=O)CSc1nc(-c2ccc(Cl)cc2)c2c(NC(=O)c3ccccc3)nnc-2[nH]1 — cell growth (SRB; 10 µM, NCI60 single-dose screen; relative to: untreated): 90.5%
CN1CCN(c2ccc3[nH]c(-c4ccc5[nH]c(-c6ccc(C(F)(F)F)cc6)nc5c4)nc3c2)CC1 — growth percent (SRB; 10 µM, 48 h): 43%
O=C(Nc1nnc2[nH]c(=S)[nH]c(-c3ccc(Cl)cc3)c1-2)c1ccccc1 — cell growth (SRB; 10 µM, NCI60 single-dose screen; relative to: untreated): 91%
CCOc1ccc(-c2nc3cc(-c4nc5cc(N6CCN(C)CC6)ccc5[nH]4)ccc3[nH]2)cc1OCC — growth percent (SRB; 10 µM, 48 h): 40.8%

A few entries again:
O=C1NC(c2ccccc2)(c2ccccc2)C(=O)N1Cc1cn(-c2c3ccccc3nc3ccccc23)nn1 — growth percentage (NCI60 single-dose screen; 10 µM): 73.5%
S=C([S][Au-][P+](CCCCCC[P+]([Au-][S]C(=S)n1cccn1)(c1ccccc1)c1ccccc1)(c1ccccc1)c1ccccc1)n1cccn1 — log10 TGI (cell growth, NCI-60 screen; renal cancer): > -4
